{"data": "Assay results from different studies", "note": "Numbered parts are unrelated; each lists some results of a single study."}
{"data": "Set 1", "target": "Centromere-binding protein 1, full length, N-terminal tag (CBF1, Saccharomyces cerevisiae, UniProt P17106, residues 1-351)", "technique": "protein-binding microarray", "form": "double-stranded DNA, one strand shown", "sample": "in vitro", "concentration": "0.8 µM", "setting": "whole 60-bp probe, no competitor", "reading": "higher = stronger binding", "chain of UniProt P17106 (whole entry, looked up)": "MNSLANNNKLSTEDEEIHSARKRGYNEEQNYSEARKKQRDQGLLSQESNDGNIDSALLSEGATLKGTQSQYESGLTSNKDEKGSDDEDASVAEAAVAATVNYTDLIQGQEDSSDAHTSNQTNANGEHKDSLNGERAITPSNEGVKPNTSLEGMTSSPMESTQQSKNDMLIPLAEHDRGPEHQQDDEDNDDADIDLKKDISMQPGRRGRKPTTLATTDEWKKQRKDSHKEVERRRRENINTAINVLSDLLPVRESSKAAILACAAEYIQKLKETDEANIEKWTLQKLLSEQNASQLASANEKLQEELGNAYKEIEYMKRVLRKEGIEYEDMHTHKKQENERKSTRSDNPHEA"}
{"Oligonucleotide": "GAACAGCGCGTATGTGGTGTGGTGTGTGTTTTGTAGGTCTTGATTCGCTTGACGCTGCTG", "fluorescence intensity": "567 a.u."}
{"Oligonucleotide": "GAAGATGTATCTCCCCGCGTGAAGTCACTAGAATAGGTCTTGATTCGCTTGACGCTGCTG", "fluorescence intensity": "543 a.u."}
{"Oligonucleotide": "CTAAATAGAAATAATCATATGATGATATAGAAATTCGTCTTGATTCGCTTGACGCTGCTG", "fluorescence intensity": "718 a.u."}
{"Oligonucleotide": "CTAGTTTGGCTTGCTCACATGGGGCTACACGTATTCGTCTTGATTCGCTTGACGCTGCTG", "fluorescence intensity": "623 a.u."}
{"Oligonucleotide": "CTATAAACGCATTGCTTCGTGGTCAGTAGTAACTTCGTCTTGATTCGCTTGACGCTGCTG", "fluorescence intensity": "551 a.u."}
{"Oligonucleotide": "CCTAACTACTATACATGCGTGAGATAGCTTCGTACAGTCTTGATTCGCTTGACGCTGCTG", "fluorescence intensity": "521 a.u."}
{"Oligonucleotide": "GAAGCACTTTTTATGCACGTGCATCGTACAATTTAGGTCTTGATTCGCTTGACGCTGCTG", "fluorescence intensity": "11400 a.u."}
{"Oligonucleotide": "CTAGGTTGCTTCAGGCATGTGCCTGGGAAATGATTCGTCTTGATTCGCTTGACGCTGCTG", "fluorescence intensity": "875 a.u."}
{"Oligonucleotide": "GAAATAATATACTAAGTGATGATGATGTGGCAATAGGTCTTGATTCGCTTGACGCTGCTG", "fluorescence intensity": "557 a.u."}
{"Oligonucleotide": "GAATAGCCGGTTAAGCACGTTGATATTGTTCTTTAGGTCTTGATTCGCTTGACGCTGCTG", "fluorescence intensity": "566 a.u."}
{"Oligonucleotide": "CCTAACTACTATAATCATGTGTTATAGCTTCGTACAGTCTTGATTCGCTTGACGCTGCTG", "fluorescence intensity": "888 a.u."}
{"Oligonucleotide": "GAAACGCGCTGCAGGAACGTGACTTCCAAAAAATAGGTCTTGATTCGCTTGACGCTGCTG", "fluorescence intensity": "3350 a.u."}
{"Oligonucleotide": "GAAGAAGAAAAAGAACACGTTGAAAACGAACATTAGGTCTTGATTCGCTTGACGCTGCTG", "fluorescence intensity": "593 a.u."}
{"Oligonucleotide": "CTAGTTAAGTGTAGATAGGTGACGCTAGAGCCGTTCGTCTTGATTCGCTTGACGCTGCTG", "fluorescence intensity": "502 a.u."}
{"Oligonucleotide": "CTATGTTTTCTTTGCCACGTTTTTTCGTGAGCTTTCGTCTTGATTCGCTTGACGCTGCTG", "fluorescence intensity": "699 a.u."}
{"Oligonucleotide": "GAATTGGCTGGGCGGCATGTGAAGTTTTTGGCCTAGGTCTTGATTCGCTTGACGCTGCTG", "fluorescence intensity": "537 a.u."}
{"Oligonucleotide": "GAAGATATTGAATCACATGGGATTTCAGATTTCTAGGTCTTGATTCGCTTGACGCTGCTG", "fluorescence intensity": "1750 a.u."}
{"Oligonucleotide": "CTATGTCATTCACGACATGTGAACAAATAAAAATTCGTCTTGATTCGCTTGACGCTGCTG", "fluorescence intensity": "1570 a.u."}
{"data": "Set 2", "target": "Histone acetyltransferase KAT6A, winged helix 2, GST fusion (KAT6A, Homo sapiens, UniProt Q92794, residues 85-181)", "technique": "protein binding microarray", "form": "double-stranded DNA, one strand shown", "sample": "in vitro", "concentration": "not given", "setting": "8-mer, flanks averaged, mean of 2 arrays, mostly near background", "baseline": "not given", "reading": "higher = stronger binding", "Residues (chain)": "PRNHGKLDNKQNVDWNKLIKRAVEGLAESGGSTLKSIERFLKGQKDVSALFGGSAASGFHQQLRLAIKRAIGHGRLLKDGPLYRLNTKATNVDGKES"}
{"Oligonucleotide": "CAGGAGGA", "E-score": -0.0477}
{"Oligonucleotide": "GCGGCGCA", "E-score": 0.102}
{"Oligonucleotide": "ACGCCGGC", "E-score": 0.184}
{"Oligonucleotide": "ATTGAGAA", "E-score": 0.0434}
{"Oligonucleotide": "AATCGTTC", "E-score": -0.0373}
{"Oligonucleotide": "AGAGAAAT", "E-score": 0.0147}
{"Oligonucleotide": "AGTTGGGG", "E-score": -0.0144}
{"Oligonucleotide": "CTAGCTTC", "E-score": 0.113}
{"Oligonucleotide": "CCCAGCGC", "E-score": 0.148}
{"Oligonucleotide": "CAGTCATA", "E-score": -0.166}
{"Oligonucleotide": "AGGATCGA", "E-score": -0.112}
{"Oligonucleotide": "AGGTGAGG", "E-score": 0.107}
{"Oligonucleotide": "ATGGTGAA", "E-score": 0.0313}
{"Oligonucleotide": "ATACTCAA", "E-score": 0.173}
{"Oligonucleotide": "AACTCCCC", "E-score": 0.0417}
{"Oligonucleotide": "GATAACGA", "E-score": -0.041}
{"Oligonucleotide": "CGGGGGCC", "E-score": 0.12}
{"Oligonucleotide": "AACTTAGG", "E-score": 0.00504}
{"Oligonucleotide": "ATAATAAA", "E-score": 0.254}
{"Oligonucleotide": "AACAACCA", "E-score": 0.192}
{"Oligonucleotide": "ACGTGGTC", "E-score": -0.252}
{"Oligonucleotide": "GCCGCAGA", "E-score": 0.227}
{"Oligonucleotide": "GCCTCACA", "E-score": 0.0705}
{"Oligonucleotide": "CATTCTGA", "E-score": 0.0609}
{"Oligonucleotide": "TCATTGGA", "E-score": 0.0739}
{"data": "Set 3", "target": "RING finger protein unkempt homolog, zinc fingers 1-6, GST-SBP tag (UNK, Homo sapiens, UniProt Q9C0B0, residues 30-357)", "technique": "RNA Bind-n-Seq", "form": "RNA", "sample": "in vitro", "concentration": "not given", "setting": "RNA with constant flanks, human and mouse sites, ends assumed", "baseline": "input RNA pool", "reading": "higher = stronger binding", "Construct (chain)": "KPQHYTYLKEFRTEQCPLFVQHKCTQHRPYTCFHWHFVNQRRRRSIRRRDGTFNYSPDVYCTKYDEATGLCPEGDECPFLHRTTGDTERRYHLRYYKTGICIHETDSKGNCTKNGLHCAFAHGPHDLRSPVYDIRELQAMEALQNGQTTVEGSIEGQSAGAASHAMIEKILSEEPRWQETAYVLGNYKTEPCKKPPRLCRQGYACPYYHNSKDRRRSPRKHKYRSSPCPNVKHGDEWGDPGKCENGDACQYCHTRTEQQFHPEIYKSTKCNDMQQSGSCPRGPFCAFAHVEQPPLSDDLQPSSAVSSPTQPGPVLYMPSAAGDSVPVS"}
{"Oligonucleotide": "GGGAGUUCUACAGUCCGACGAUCGCAUAUUAUAUCAGACUGCUUUGAGAAAUCUCAUCCCUAGUCUAUUGCAGUUGUUUCUAUUAGCUUACUGAUUAACUCAGUCCUGACACACCUUUUGGGAAAUGCUGAUUUAAACUUCUUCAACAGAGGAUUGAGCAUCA", "bound/input enrichment [ratio]": 4.38}
{"Oligonucleotide": "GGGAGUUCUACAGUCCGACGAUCAAAGUGGACGAACGAGUGCGACAGCUCACCGAGGUGCUUGUGUUUGAGCUCUCCCCGGAUCGCUCUCUGAGAGGCGGCCCCAAGGCUACUCGGAGAGCCGUGUCUCAGCUGAUCCGGCUGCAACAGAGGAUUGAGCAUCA", "bound/input enrichment [ratio]": 0.0568}
{"Oligonucleotide": "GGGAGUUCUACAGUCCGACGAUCCUGGACGAGUUUCUAGUGAAAAAUGACCCCUGCCGAGCACGAGGCAGAACUAACAUAGAACUUAGAGAGAAAUUCAUCCUGCCAGAAGGGGCAUCUCAGGGGAUGACUCCAUUCCGGUCACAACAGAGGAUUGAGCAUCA", "bound/input enrichment [ratio]": 0.46}
{"Oligonucleotide": "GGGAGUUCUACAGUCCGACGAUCCUUUUCCCAGCGUGCCCCUCUUCAGUGCCUGCUCCAGGUUGAAGAAGCUUCUAGAUGGAUCCUUUCCAAAUUUGGUGUCUUUUCUACAAACUCUGUGCCUCAACCUCAAUUUCUAAGUGACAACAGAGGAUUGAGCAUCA", "bound/input enrichment [ratio]": 0.379}
{"Oligonucleotide": "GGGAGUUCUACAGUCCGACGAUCGGGCACUGAUCUUCGAUCGCGAAGAUGGCUGCUGGCUGCCUGCUGGCCUUGACUCUGACACUUUUCCAAUCUGGGCUGAUCGGCCCCUCGAGCGAGGAGCCCUUCCCUUCGCCCGUCACUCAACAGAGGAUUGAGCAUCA", "bound/input enrichment [ratio]": 0.123}
{"Oligonucleotide": "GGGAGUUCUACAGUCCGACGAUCUGCUUUGAAAAUACCGGAGAGCUCAUUCUCCAGUCCGGCUCUUUCUCCUUCCAGAACUUCAUAGAGAUUUUCACCGAUCAAGAGAUCGGGGAGUUACUAAGCACCACCCAUCCUGCCAACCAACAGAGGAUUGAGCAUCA", "bound/input enrichment [ratio]": 0.575}
{"Oligonucleotide": "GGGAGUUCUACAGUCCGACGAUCGUUGGAGCAGGCCAGGGAUUGAGGCCCACCUUCCCACAUAUACCAAGUAGAUAUGGAAUCAACAGGAUGGGGCAGCCAAGACCCUGACAGACUCUAACUUAUUGUGAUGGGGAAUAGCGACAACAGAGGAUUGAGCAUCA", "bound/input enrichment [ratio]": 0.611}
{"Oligonucleotide": "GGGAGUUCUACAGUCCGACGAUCGCAGAAGGAACUUUGGGGUGCAGCCAGGACCCGGUAGGCCUGAGCCUCAACUCUUCAGAAAAUAGUGUUUUUAAUAUUCCUCUUCAGAAAAUAGUGUUUUUAAUAUUCCGAGCUAGAGCUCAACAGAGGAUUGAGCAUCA", "bound/input enrichment [ratio]": 57.8}
{"data": "Set 4", "target": "RNA binding protein fox-1 homolog 2, RRM domain, GST-SBP tag (RBFOX2, Homo sapiens, UniProt O43251-10, residues 100-194)", "technique": "RNA Bind-n-Seq", "form": "RNA", "sample": "in vitro", "concentration": "365 nM", "setting": "natural RNA segment, single round, ends assumed", "baseline": "no-protein control", "reading": "higher = stronger binding", "Residues (chain)": "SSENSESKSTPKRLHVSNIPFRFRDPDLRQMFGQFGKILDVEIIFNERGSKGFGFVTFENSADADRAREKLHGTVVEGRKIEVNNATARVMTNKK"}
{"Oligonucleotide": "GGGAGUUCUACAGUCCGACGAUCGGGAGUUGCAGUAGCAUGAUCAGGACUCACUGCAGCCUCUAUCUCCCAGGCUCAAGUAAUCCUCCCAUCUUAGUGCCCCAAGUAGCUGGGACUACAGGGGUGCACUACCAUGGAAUUCUCGGGUGCCAA", "RBNS enrichment (R)": 1.35}
{"Oligonucleotide": "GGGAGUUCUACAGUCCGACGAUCGCAGCCCCGCCCCCGUGGGUCUCUGACUCUGUCGCUUUUCUCUAAGUAAAGAUUUCACGUCCACCGGGGCUUCCAUCUCUCCUGCGCGUCCUCUGCCGGGCUGGCCUUUCUGGAAUUCUCGGGUGCCAA", "RBNS enrichment (R)": 0.367}
{"Oligonucleotide": "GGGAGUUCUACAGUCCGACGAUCUGUAAAUAAUAUGUACUUUGGGUUUUUAACACCGCAUGUAAAGUCAAAAUAAAAUAUCCAAGUCAUUACAUCCUGCCUUUUGAUGUUAACAGGUUUGCACUGCGUCAUGCUGGAAUUCUCGGGUGCCAA", "RBNS enrichment (R)": 30.4}
{"Oligonucleotide": "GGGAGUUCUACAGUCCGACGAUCCCAUGGGGUGUCACACCCCACACCUCAUGCUCGAGAGGCCCGACCCAGGGGCAGAAAACGGGGCUUGAAGAGUGUGUCCCCAUCCCACCCCCAGCCUCUGCCUUCUUGGCUGGAAUUCUCGGGUGCCAA", "RBNS enrichment (R)": 0.559}
{"Oligonucleotide": "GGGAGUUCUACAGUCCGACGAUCUGGAGCCAGCGAGACCAGGAUCCCUGGAAUCUCUCAAGUUCACUGGCCCCUGAGAAUGCCUGUGUUAGUUAAAGACAGAUGGGAUCAAGGCGAGGGCUACAGGCUGAGAGUGGAAUUCUCGGGUGCCAA", "RBNS enrichment (R)": 1.15}
{"Oligonucleotide": "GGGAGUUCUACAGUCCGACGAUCUUUAAGGUGUCUUUAUGAAGUUUGCUAUUCUGGCAAUAAACUUUUAGACUUUUGAAGUGUUUGUGUUUUAAUUUAAUAUGUUUAUAAGCAUGUAUAAACAUUUAGCAUAUUGGAAUUCUCGGGUGCCAA", "RBNS enrichment (R)": 54.3}
{"Oligonucleotide": "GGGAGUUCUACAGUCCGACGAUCUGACGUCAAUGCAAUUGAAUCACCGUUGUCAUUCAGCGAGCAACCAAUGUAGGAUUGCCCACAGUUUUUCUUUUUAAAGGUGGUUUUCGCCCUUCCUCUCCCACAUUAUUUGGAAUUCUCGGGUGCCAA", "RBNS enrichment (R)": 0.858}
{"Oligonucleotide": "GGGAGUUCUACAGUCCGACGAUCCAUAUGCCCCUGUGCCCAGUGGUUGAUGAUACCACCACCACCUGCCUACCCAUGGGCCCAAGUUUCUGUGGCUCAUUACAGGGCAUCUGACCCCUGCCACCCAGCAUAGAUGGAAUUCUCGGGUGCCAA", "RBNS enrichment (R)": 0.328}
{"Oligonucleotide": "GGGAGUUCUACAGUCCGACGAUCGGAGUGGAGAGGAAAAGCAUCAGAAAGAGGCAGACCAUCCACCAGGCCUUUGAGAAAGGGUAGAAUUCUGGCUGGUAGAGCAGGUGAGAUGGGACAUUCCAAAGAACAGCUGGAAUUCUCGGGUGCCAA", "RBNS enrichment (R)": 0.605}
